Results from different studies.
Each line is one published result; not all experiments were run side by side. ± gives the spread as reported.

Structure (SMILES)	test	system	setting	scale	endpoint	result
O=C1NC2(CC2)COc2ncc(F)cc2[C@H]2COCCN2c2ccn3ncc1c3n2	–	Sprague-Dawley rat, male, blood	oral, 5 mg/kg/day, 4 weeks, end of treatment, subacute toxicity	–	lymphocyte percentage	76.8 ± 9.7%
CCN(CC)CCOc1ccc(-c2nnn(Cc3ccc(OC)cc3)c2N)cc1	–	rat hepatocytes	concentration not given, time not given	–	remaining compound	37%
N#[11C]c1ccc(-c2csc(NN=C3CCCC3)n2)cc1	–	C57BL/6 mouse, male	intravenous, 3 MBq, 30 min	–	uptake in blood	3.27 ± 0.47 %ID/g
CC(C)=CCC/C(C)=C/CCn1cc(CC(P(=O)(O)O)P(=O)(O)O)nn1	–	CD-1 mice	intravenous, 0.3 mg/kg, 24 h	–	biliary excretion of dose	not detected
CC[C@H](C)[C@@H](C(=O)N[C@@H](CC(C)C)C(=O)N[C@@H](CO)C(=O)N[C@@H](CO)C(=O)N[C@H](C(=O)N[C@@H](CCC(=O)O)C(=O)N[C@H](C(=O)NCC(=O)N[C@@H](CO)C(=O)N[C@@H](CC(N)=O)C(=O)N[C@H](C(=O)N1C[C@H](O)C[C@H]1C(N)=O)[C@@H](C)O)C(C)C)[C@@H](C)O)N(C)C(=O)[C@H](C)NC(=O)CN(C)C(=O)[C@H](Cc1ccccc1)NC(=O)[C@H](CO)NC(=O)[C@H](CO)NC(=O)[C@H](CCCNC(=N)N)NC(=O)[C@H](CCC(N)=O)NC(=O)[C@H](CC(C)C)NC(=O)[C@H](Cc1ccccc1)NC(=O)[C@H](Cc1c[nH]cn1)NC(=O)[C@H](C)NC(=O)[C@H](CC(C)C)NC(=O)[C@H](CCCNC(=N)N)NC(=O)[C@H](CCC(=O)O)NC(=O)[C@@H](NC(=O)[C@H](C)NC(=O)[C@@H]1CCCCn2cc(nn2)C[C@H](NC(=O)[C@H](CCCNC(=N)N)NC(=O)CC[C@H](NC(=O)CCCCCCCCCCCCCCCCCCC(=O)O)C(=O)O)C(=O)NCC(=O)N[C@@H]([C@@H](C)O)C(=O)N[C@@H](C)C(=O)N[C@@H]([C@@H](C)O)C(=O)N1)[C@@H](C)O	RP-HPLC	water	1.0 mg/mL, 7 days, pH 7.5, 40 °C	–	main peak area remaining	98%
COC(=O)[C@H]1[C@@H](c2ccc(Cl)c(Cl)c2)C[C@@H]2CC[C@H]1N2Cc1c2ccccc2c(Cl)c2ccccc12	fluorometric titration	–	1 µM, 10% DMSO	–	pKa	3.7
CC[C@H](C)[C@H](NC(=O)[C@H](CCCCN)NC(=O)CNC(=O)[C@H](CC(C)C)NC(=O)[C@H](Cc1ccccc1)NC(=O)[C@H](CCCCN)NC(=O)[C@H](CO)NC(=O)[C@H](Cc1ccccc1)NC(=O)[C@H](Cc1c[nH]c2ccccc12)NC(=O)[C@H](CCC(N)=O)NC(=O)[C@@H](NC(=O)[C@H](Cc1ccccc1)NC(=O)CCCCCNC(=O)CN1CCN(CC(=O)O)CCN(CC(=O)O)CCN(CC(=O)O)CC1)C(C)C)C(=O)N[C@@H](CCC(=O)O)C(=O)N1CCC[C@H]1C(=O)N[C@@H](CC(=O)O)C(=O)N[C@H](C(=O)N[C@@H](CO)C(=O)N[C@@H](CCC(N)=O)C(=O)N[C@H](C(=O)N[C@@H](CCC(N)=O)C(=O)N[C@@H](CC(=O)O)C(=O)N1CCC[C@H]1C(=O)N[C@@H](CC(N)=O)C(=O)N[C@@H](CC(=O)O)C(=O)N[C@@H](CCC(N)=O)C(=O)N[C@@H](Cc1ccc(O)cc1)C(=O)N[C@@H](CCC(=O)O)C(=O)N1CCC[C@H]1C(=O)N[C@@H](Cc1ccccc1)C(=O)O)C(C)C)C(C)C [copper-64 labelled]	–	C57BL/6 male mouse, tumour-naive, lung	4 h	–	tissue uptake	7.43 ± 0.7 %ID/g
CSCC[C@H](NC(=O)CNC(=O)[C@H](CCCCN)NC(=O)[C@H](CC(C)C)NC(=O)[C@@H]1CCCN1C(=O)[C@H](CO)NC(=O)[C@H](Cc1c[nH]cn1)NC(=O)[C@H](Cc1c[nH]c2ccccc12)NC(=O)[C@H](CCCNC(=N)N)NC(=O)[C@H](CC(C)C)NC(=O)[C@H](CCCNC(=N)N)NC(=O)[C@H](Cc1c[nH]c2ccccc12)NC(=O)[C@H](CS)NC(=O)CCCCCNC(=O)CN1CCN(CC(=O)O)CCN(CC(=O)O)CCN(CC(=O)O)CC1)C(=O)O [copper-64 labelled]	–	C57BL/6J mice, B16-F10 tumour	intravenous, 1.85 MBq, 18 h	reference: tumour over blood	tumour-to-blood ratio	3.7
CC[C@H](C)[C@H](NC(=O)[C@H](CCCNC(=N)N)NC(=O)[C@H](CCCNC(=N)N)NC(=O)[C@H](CC(C)C)NC(=O)[C@H](Cc1c[nH]c2ccccc12)NC(=O)[C@H](CCCCN)NC(=O)[C@H](CCCNC(=N)N)NC(=O)[C@H](CCCCN)NC(=O)[C@H](CCCNC(=N)N)NC(=O)[C@H](CCCNC(=N)N)NC(=O)CN)C(=O)NCC(=O)N[C@@H](CCCCN)C(=O)NCC(=O)N[C@H](C(=O)N[C@@H](CCCCN)C(=O)N[C@H](C(=O)N[C@H](C(=O)NCC(=O)NCC(=O)N[C@@H](C)C(=O)N[C@@H](C)C(=O)N[C@@H](CC(C)C)C(=O)N[C@@H](CC(=O)O)C(=O)N[C@@H](Cc1c[nH]cn1)C(=O)N[C@@H](CC(C)C)C(N)=O)[C@@H](C)CC)[C@@H](C)CC)C(C)C	–	zebrafish embryos 4 hpf, E3 medium	24 h	–	chronic toxic concentration	5 µM
NC1CCN(C(=O)Oc2ccc(C3CCCC4(C3)OOC3(O4)C4CC5CC(C4)CC3C5)cc2)CC1 (racemic)	–	male mouse, plasma	oral, 50 mg/kg, single dose	–	AUC(0-t)	16400 ng·h/mL
Cc1ccc(C(C)C)cc1.O=C(N=P(c1ccccc1)(c1ccccc1)c1ccccc1)c1ccccn1.[Cl-].[Cl][Ru+]	LC-MS shake flask	1-octanol/PBS	–	–	logP	1.45 ± 0.02
CC(C)[C@H](NC(=O)[C@@H](NC(=O)[C@H](CCCNC(=N)N)NC(=O)[C@H](CCCNC(=N)N)NC(=O)[C@H](CCCNC(=N)N)NC(=O)[C@H](CCC(N)=O)NC(=O)[C@H](CCCNC(=N)N)NC(=O)[C@H](CCCNC(=N)N)NC(=O)[C@H](CCCCN)NC(=O)[C@H](CCCCN)NC(=O)[C@H](CCCNC(=N)N)NC(=O)CN)[C@@H](C)O)C(=O)N[C@H](C(=O)N[C@@H](CO)C(=O)N1CCC[C@H]1C(=O)O)[C@@H](C)O	–	ICR mice, female, heart	intranasal, 10 mg/kg daily, 4 weeks	–	organ weight	0.166 ± 0.038 g
CC(C)NCCCn1c(Sc2cc3c(cc2I)OCO3)nc2c(N)ncnc21	LC-MS/MS	mouse, MDA-MB-468 xenograft, tumour	25 mg/kg single dose, 24 h	–	tumour concentration	1.8 µM
